# Published values from different studies.
# Several values in a cell are separate wells, animals, samples, runs or records. Numbers after ± are the reported error.
# Grin1 with GluN2A: Glutamate receptor ionotropic, NMDA 1, with GluN2A (Grin1, Rattus norvegicus, UniProt P35439)
# MMP13: Collagenase 3 (MMP13, Homo sapiens, UniProt P45452)
# CCR1: C-C chemokine receptor type 1 (CCR1, Homo sapiens, UniProt P32246)
# Chain of UniProt P32246 (whole entry, looked up): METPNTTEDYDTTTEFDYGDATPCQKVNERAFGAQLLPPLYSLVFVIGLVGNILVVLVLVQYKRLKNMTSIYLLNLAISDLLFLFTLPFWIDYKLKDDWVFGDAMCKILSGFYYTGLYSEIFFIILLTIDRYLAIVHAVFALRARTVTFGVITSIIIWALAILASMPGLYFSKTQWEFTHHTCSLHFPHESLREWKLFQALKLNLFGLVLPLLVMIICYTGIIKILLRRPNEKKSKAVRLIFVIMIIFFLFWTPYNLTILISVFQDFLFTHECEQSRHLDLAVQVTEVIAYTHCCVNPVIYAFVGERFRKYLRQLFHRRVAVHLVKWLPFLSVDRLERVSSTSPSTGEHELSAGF
# DNA polymerase catalytic subunit: DNA polymerase catalytic subunit (Human cytomegalovirus, UniProt P08546)
# Chain of UniProt P08546 (whole entry, looked up): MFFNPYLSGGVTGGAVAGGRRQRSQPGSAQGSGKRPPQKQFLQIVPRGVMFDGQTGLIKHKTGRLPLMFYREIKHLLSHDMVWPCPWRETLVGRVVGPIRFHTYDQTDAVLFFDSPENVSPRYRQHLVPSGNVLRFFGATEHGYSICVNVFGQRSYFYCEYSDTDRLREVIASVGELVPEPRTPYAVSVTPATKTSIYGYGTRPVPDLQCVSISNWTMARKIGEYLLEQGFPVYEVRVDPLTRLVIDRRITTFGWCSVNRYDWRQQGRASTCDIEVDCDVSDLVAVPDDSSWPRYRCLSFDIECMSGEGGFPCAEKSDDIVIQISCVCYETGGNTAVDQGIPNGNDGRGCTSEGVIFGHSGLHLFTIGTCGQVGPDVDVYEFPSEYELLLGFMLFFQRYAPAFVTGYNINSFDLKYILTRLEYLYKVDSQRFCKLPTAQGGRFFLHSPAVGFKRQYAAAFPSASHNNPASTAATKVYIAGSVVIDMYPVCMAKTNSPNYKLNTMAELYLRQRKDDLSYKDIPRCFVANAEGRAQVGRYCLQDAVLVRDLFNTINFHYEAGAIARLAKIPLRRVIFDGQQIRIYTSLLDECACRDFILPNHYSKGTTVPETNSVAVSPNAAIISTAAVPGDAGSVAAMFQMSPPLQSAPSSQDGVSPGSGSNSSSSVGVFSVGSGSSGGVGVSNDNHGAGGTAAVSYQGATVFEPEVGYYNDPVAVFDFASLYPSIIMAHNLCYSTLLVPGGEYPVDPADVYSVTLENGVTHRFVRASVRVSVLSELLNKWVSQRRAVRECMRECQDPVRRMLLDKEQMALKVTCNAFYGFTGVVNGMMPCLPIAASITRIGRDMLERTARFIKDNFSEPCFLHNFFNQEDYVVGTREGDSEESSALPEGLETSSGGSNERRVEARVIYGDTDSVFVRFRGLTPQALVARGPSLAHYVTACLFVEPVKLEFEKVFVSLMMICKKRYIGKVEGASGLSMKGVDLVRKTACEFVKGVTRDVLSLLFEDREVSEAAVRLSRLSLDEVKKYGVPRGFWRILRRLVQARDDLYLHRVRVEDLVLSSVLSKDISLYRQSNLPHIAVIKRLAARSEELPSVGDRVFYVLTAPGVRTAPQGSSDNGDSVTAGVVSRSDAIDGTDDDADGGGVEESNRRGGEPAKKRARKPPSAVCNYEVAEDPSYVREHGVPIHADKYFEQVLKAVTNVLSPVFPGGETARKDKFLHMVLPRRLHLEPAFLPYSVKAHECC
# Chain of UniProt P51575 (whole entry, unmodified, looked up): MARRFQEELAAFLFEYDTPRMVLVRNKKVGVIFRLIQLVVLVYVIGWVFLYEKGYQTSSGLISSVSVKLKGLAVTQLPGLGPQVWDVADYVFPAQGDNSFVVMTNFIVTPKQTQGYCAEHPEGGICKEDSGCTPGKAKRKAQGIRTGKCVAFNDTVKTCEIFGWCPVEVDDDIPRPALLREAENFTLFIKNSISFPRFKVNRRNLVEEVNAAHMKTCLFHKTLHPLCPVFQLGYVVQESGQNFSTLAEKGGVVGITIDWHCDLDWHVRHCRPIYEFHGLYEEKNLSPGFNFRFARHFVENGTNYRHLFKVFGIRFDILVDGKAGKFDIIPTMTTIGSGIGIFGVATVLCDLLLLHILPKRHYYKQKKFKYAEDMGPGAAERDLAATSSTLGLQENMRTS
# Chain of UniProt Q16620 (whole entry, looked up): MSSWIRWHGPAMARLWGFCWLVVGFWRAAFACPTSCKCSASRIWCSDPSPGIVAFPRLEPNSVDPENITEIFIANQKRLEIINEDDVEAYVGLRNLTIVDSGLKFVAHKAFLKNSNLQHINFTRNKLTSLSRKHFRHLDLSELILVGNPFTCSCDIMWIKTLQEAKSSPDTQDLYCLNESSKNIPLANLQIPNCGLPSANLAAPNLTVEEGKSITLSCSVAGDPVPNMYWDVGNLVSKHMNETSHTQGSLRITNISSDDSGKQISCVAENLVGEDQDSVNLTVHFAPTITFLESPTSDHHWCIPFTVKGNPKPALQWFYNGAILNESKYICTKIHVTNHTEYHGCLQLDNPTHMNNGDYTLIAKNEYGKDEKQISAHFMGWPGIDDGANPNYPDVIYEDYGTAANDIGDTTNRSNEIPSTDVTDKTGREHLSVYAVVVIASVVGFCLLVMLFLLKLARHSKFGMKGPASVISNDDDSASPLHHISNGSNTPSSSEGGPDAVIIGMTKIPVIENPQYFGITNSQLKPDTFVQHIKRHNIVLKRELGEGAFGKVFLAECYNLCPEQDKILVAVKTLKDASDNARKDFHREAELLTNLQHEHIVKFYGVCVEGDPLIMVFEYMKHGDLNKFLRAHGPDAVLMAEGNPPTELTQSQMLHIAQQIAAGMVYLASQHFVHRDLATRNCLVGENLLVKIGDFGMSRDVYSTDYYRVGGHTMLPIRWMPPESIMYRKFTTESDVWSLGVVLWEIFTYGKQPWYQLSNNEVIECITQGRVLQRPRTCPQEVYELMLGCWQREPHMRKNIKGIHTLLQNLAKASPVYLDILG
SMILES,target or system,assay,system,conditions,scale,measurement,result
Cc1cc(C(=O)NC[C@@H](N)C(=O)O)sc1-c1ccccc1Br,Grin1 with GluN2A,,,with: glutamate 300 µM,,Hill slope,1.22
COc1cccc(CNC(=O)C#Cc2cn(Cc3ccc(C(=O)O)cc3)c(=O)[nH]c2=O)c1,MMP13,"protease activity, FRET",,,,Hill slope,-1.08
O=C(C1=C(O)C(=O)N(c2ccc(Br)cc2F)C1c1cccc(Br)c1)C1CC1 (stereo not shown),CCR1,inverse agonist,U2OS,no agonist,,Hill slope,-0.5 ± 0.07
N[C@H](CNC(=O)c1ccc(-c2ccccc2)s1)C(=O)O,Grin1 with GluN2A,,,with: glutamate 300 µM,,Hill slope,1.48
CC1(F)CN(C(=O)Cn2c(=O)c(C(=O)NCc3ccc(Cl)cc3)cc3nc(N4CCNC4=O)cnc32)C1,DNA polymerase catalytic subunit,"enzyme activity, inhibitor",,,,Hill slope,1.12
N[C@H](CNC(=O)c1cc(Br)c(-c2ccccc2F)s1)C(=O)O,"Glutamate receptor ionotropic, NMDA 1, with GluN2C (Grin1, Rattus norvegicus, UniProt P35439, V689I)",,rat,with: glutamate 300 µM,,Hill slope,1.43
CC(C)C[C@H](NC(=O)C[C@H](O)[C@H](CC(C)C)NC(=O)[C@H](Cc1c[nH]cn1)NC(=O)CNC(=O)[C@@H](NC(=O)[C@H](C)NC(=O)[C@H](Cc1c[nH]c2ccccc12)NC(=O)[C@H](CCC(N)=O)NC(=O)[C@@H](Cc1ccccc1)NC(=O)COCCOCCNC(=O)CCC(C(=O)O)N1CCN(CC(=O)O)CCN(CC(=O)O)CCN(CC(=O)O)CC1)C(C)C)C(N)=O (stereo partly shown) [lutetium-177 labelled],,,"female BALB/c nu/nu mice, skin","intravenous, 100 pmol, 2 h, with: PA 300 µg",,tissue uptake,0.17 ± 0.05 %ID/g
O=C(O)CCCOc1cccc(CNC(=O)C#Cc2cn(Cc3ccc(C(=O)O)cc3)c(=O)[nH]c2=O)c1,MMP13,"protease activity, FRET",,,,Hill slope,-0.666
Nc1ncnc2c1ncn2[C@@H]1O[C@H](COP(=O)(O)CP(=O)(O)OP(=O)(O)O)[C@@H](O)[C@H]1O,"P2X purinoceptor 1 (P2RX1, Homo sapiens, UniProt P51575, D97A)",calcium influx,,316 nM,relative to: ionomycin response,calcium influx,84.3% and 77.9% and 91.9% and 76.4%
O=C(OCc1ccccc1)c1ccccc1O,Nicotiana benthamiana,"enzyme activity, substrate, UPLC-UV/MS",,"10 min, pH 7, 25 °C",,Km,50.8 ± 1.96 µM
CC(=O)C1=C(O)C(=O)N(c2ccc(Cl)c(C)c2)C1C1CCCCC1 (stereo not shown),CCR1,inverse agonist,U2OS,no agonist,,Hill slope,-0.6 ± 0.05
Cn1cc(-c2ccc(-c3cncc(Cl)c3N3CCC4(CCNC4=O)CC3)cc2)cn1,COLO 205,"gene expression, microarray, refers to: NDUFA4L2 mRNA",,"concentration not given, 2 h",relative to: untreated cells,log2 fold change,2.59
CN1CCN(c2cnc3c(cc(C(=O)NCc4ccc(Cl)cc4)c(=O)n3CC(=O)N3CC(C)(F)C3)n2)C1=O,DNA polymerase catalytic subunit,"enzyme activity, inhibitor",,retest,,Hill slope,1
C[C@H]1Oc2cc(cnc2N)-c2c(nn(C)c2C#N)CN(C)C(=O)c2ccc(F)cc21,"NTRK2 (Homo sapiens, UniProt Q16620)",receptor phosphorylation,NG,,,Hill slope,1.61
CC1(C)CN(C(=O)Cn2c(=O)c(C(=O)NCc3ccc(Cl)cc3)cc3nccnc32)C1,DNA polymerase catalytic subunit,"enzyme activity, inhibitor",,,,Hill slope,1
COc1cc(Nc2ncc3c(n2)-c2ccc(Cl)cc2C(c2c(F)cccc2OC)=NC3)ccc1C(=O)O,ROS1,kinase activity,,1 µM,,remaining activity,20%

# For quick reference, copied from above:
SMILES,target or system,assay,system,conditions,scale,measurement,result
O=C(C1=C(O)C(=O)N(c2ccc(Br)cc2F)C1c1cccc(Br)c1)C1CC1 (stereo not shown),CCR1,inverse agonist,U2OS,no agonist,,Hill slope,-0.5 ± 0.07
